# Measured values gathered from unrelated publications.
# Protocols differ between the studies behind these lines. Several values in a cell are separate wells, animals, samples, runs or records. Numbers after ± are the reported error.
# Partner: itself
# B1: Ikbkg 1-355 C54S/K285N (Mus musculus, UniProt O88522); sequence looked up; chain MNKHPWKNQLSEMVQPSGGPAEDQDMLGEESSLGKPAMLHLPSEQGTPETLQRSLEENQELRDAIRQSNQMLRERCEELLHFQVSQREEKEFLMCKFQEARKLVERLSLEKLDLRSQREQALKELEQLKKCQQQMAEDKASVKAQVTSLLGELQESQSRLEAATKDRQALEGRIRAVSEQVRQLESEREVLQQQHSVQVDQLRMQNQSVEAALRMERQAASEEKRKLAQLQAAYHQLFQDYDSHIKSSKGMQLEDLRQQLQQAEEALVAKQELIDKLKEEAEQHNIVMETVPVLKAQADIYKADFQAERHAREKLVEKKEYLQEQLEQLQREFNKLKVGCHESARIEDMRKRHVE
# B2: treS (Deinococcus radiodurans); chain MTQAHPEWYKSAVFYELSVRTFQDGNGDGKGDFPGLTSRLDYLKNLGVDCLWLLPWFPSPLRDDGYDVADYRGIHPDLGTLDDFKVFLREAHARGLRVIGDLVTNHTSSDHPWFQAARRGPTLPDGSPNEYHDYYVWSDEGKEYADTRIIFTDTEVSNWTLDEQAGKYYWHRFFASQPDLNYDNPKVVEELHGAARFWLDLGLDGFRVDAVPYLIEREGTSCENLPETHEILKGFRAMVDREYPGRLLLAEANQWPEEVVEYFGTEAEPEFHMCFNFPVMPRLYMSLKREDTSSIREIMGRLPKIPSFGQWCTFLRNHDELTLEMVTDDERAFMYAAYAPDARMKINVGIRRRLAPLLDNDRRRIELLNTVLLALPGSPILYYGDEIGMGDDLGLPDRNGVRTPMQWNAGTSGGFSTAQPSDCFFPPIQDPVYGFGRVNVQSQLQDPSSLLKWTARQLELRRAHPAFAHGDLTFIETGNPAILAFTRQYDGETLLIVSNFAGNAQAGLLDLAPFVGRAPVTLSGASPLPVVTGNGQYPVVMGKYDYYWLRLNLEHHHHHH
# B3: cfbA 1-143 S11I (Methanocaldococcus jannaschii, UniProt Q58380); chain MEALVLVGHGIRLPYSKELLVKLAEKVKERNLFPIVEIGLMEFSEPTIPQAVKKAIEQGAKRIIVVPVFLAHGIHTTRDIPRLLGLIEDNHEHHHEHSHHHHHHHHHEHEKLEIPEDVEIIYREPIGADDRIVDIIIDRAFGR
# B4: TSPAN8 C7A/C74A/C75A/C83A/C232A (Homo sapiens, UniProt P19075); sequence looked up; chain MAGVSAAIKYSMFTFNFLFWLCGILILALAIWVRVSNDSQAIFGSEDVGSSSYVAVDILIAVGAIIMILGFLGAAGAIKESRAMLLLFFIGLLLILLLQVATGILGAVFKSKSDRIVNETLYENTKLLSATGESEKQFQEAIIVFQEEFKCCGLVNGAADWGNNFQHYPELCACLDKQRPCQSYNGKQVYKETCISFIKDFLAKNLIIVIGISFGLAVIEILGLVFSMVLYAQIGNK
# B5: gdh1 2-451 (Schizosaccharomyces pombe, UniProt P78804); chain STPYEPEFQQAYKEIVGSIESSKLFEVHPELKRVLPIISIPERVLEFRVTWEDDKGNCRVNTGYRVQFNSALGPYKGGLRFHPSVNLSILKFLGFEQIFKNALTGLPMGGGKGGSDFDPKGKSDNEIRRFSQAFMRQLFRYIGPQTDVPAGDIGVTGFVVMHMFGEYKRLRNEYSGVVTGKHMLTGGSNIRPEATGYGVVYYVKHMIEHRTKGAETLKGKRVAISGSGNVAQYAALKCIQEGAIVKSISDSKGVLIAKTAEGLVPEEIHEIMALKEKRASIADSASLCKKHHYIAGARPWTNVGEIDIALPCATQNEVSGEEAAALIKQGCRYVAEGSNMGSSAEAVEVFEKSRASGEGCWLAPGKAANAGGVAVSGLEMAQNAQFSTWTHAEVDAKLAGIMQNIFEQSTDVASKYCDSGSNNIPSLVDGANIAGFLKVATAMQAVGDWW
# B6: grpE (Escherichia coli, UniProt P09372); sequence looked up; chain MSSKEQKTPEGQAPEEIIMDQHEEIEAVEPEASAEQVDPRDEKVANLEAQLAEAQTRERDGILRVKAEMENLRRRTELDIEKAHKFALEKFINELLPVIDSLDRALEVADKANPDMSAMVEGIELTLKSMLDVVRKFGVEVIAETNVPLDPNVHQAIAMVESDDVAPGNVLGIMQKGYTLNGRTIRAAMVTVAKAKA
# B7: MIB1 417-1006 (Homo sapiens, UniProt Q86YT6); sequence looked up; chain QLLKKLFETQESGDLNEELVKAAANGDVAKVEDLLKRPDVDVNGQCAGHTAMQAASQNGHVDILKLLLKQNVDVEAEDKDGDRAVHHAAFGDEGAVIEVLHRGSADLNARNKRRQTPLHIAVNKGHLQVVKTLLDFGCHPSLQDSEGDTPLHDAISKKRDDILAVLLEAGADVTITNNNGFNALHHAALRGNPSAMRVLLSKLPRPWIVDEKKDDGYTALHLAALNNHVEVAELLVHQGNANLDIQNVNQQTALHLAVERQHTQIVRLLVRAGAKLDIQDKDGDTPLHEALRHHTLSQLRQLQDMQDVGKVDAAWEPSKNTLIMGLGTQGAEKKSAASIACFLAANGADLSIRNKKGQSPLDLCPDPNLCKALAKCHKEKVSGQVGSRSPSMISNDSETLEECMVCSDMKRDTLFGPCGHIATCSLCSPRVKKCLICKEQVQSRTKIEECVVCSDKKAAVLFQPCGHMCACENCANLMKKCVQCRAVVERRVPFIMCCGGKSSEDATDDISSGNIPVLQKDKDNTNVNADVQKLQQQLQDIKEQTMCPVCLDRLKNMIFLCGHGTCQLCGDRMSECPICRKAIERRILLY
# B8: PHYA F389E (Arabidopsis thaliana, UniProt P14712); phytochromobilin thioether linked; chain GMSGSRPTQSSEGSRRSRHSARIIAQTTVDAKLHADFEESGSSFDYSTSVRVTGPVVENQPPRSDKVTTTYLHHIQKGKLIQPFGCLLALDEKTFKVIAYSENASELLTMASHAVPSVGEHPVLGIGTDIRSLFTAPSASALQKALGFGDVSLLNPILVHCRTSAKPFYAIIHRVTGSIIIDFEPVKPYEVPMTAAGALQSYKLAAKAITRLQSLPSGSMERLCDTMVQEVFELTGYDRVMAYKFHEDDHGEVVSEVTKPGLEPYLGLHYPATDIPQAARFLFMKNKVRMIVDCNAKHARVLQDEKLSFDLTLCGSTLRAPHSCHLQYMANMDSIASLVMAVVVNEEDGEGDAPDATTQPQKRKRLWGLVVCHNTTPRFVPFPLRYACEELAQVFAIHVNKEVELDNQMVEKNILRTQTLLCDMLMRDAPLGIVSQSPNIMDLVKCDGAALLYKDKIWKLGTTPSEFHLQEIASWLCEYHMDSTGLSTDSLHDAGFPRALSLGDSVCGMAAVRISSKDMIFWFRSHTAGEVRWGGAKHDPDDRDDARRMHPRSSFKAFLEVVKTRSLPWKDYEMDAIHSLQLILRNAFKDSETTDVNTKVIYSKLNDLKIDGIQELEAVTSEMVRLIETATVPILAVDSDGLVNGWNTKIAELTGLSVDEAIGKHFLTLVEDSSVEIVKRMLENALEGTEEQNVQFEIKTHLSRADAGPISLVVNACASRDLHENVVGVCFVAHDLTGQKTVMDKFTRIEGDYKAIIQNPNPLIPPIFGTDEFGWCTEWNPAMSKLTGLKREEVIDKMLLGEVFGTQKSCCRLKNQEAFVNLGIVLNNAVTSQDPEKVSFAFFTRGGKYVECLLCVSKKLDREGVVTGVFCFLQLASHELQQALHVQRLAERTAVKRLKALAYIKRQIRNPLSGIMFTRKMIEGTELGPEQRRILQTSALCQKQLSKILDDSDLESIIEGCLDLEMKEFTLNEVLTASTSQVMMKSNGKSVRITNETGEEVMSDTLYGDSIRLQQVLADFMLMAVNFTPSGGQLTVSASLRKDQLGRSVHLANLEIRLTHTGAGIPEFLLNQMFGTEEDVSEEGLSLMVSRKLVKLMNGDVQYLRQAGKSSFIITAELAAANK
# B9: comFB 1-98 (Bacillus subtilis, UniProt P39146); chain MLVNSKEIVMKELLDRYMDQLHMACTCQVCQNDVLALSLNKVSPSYVTDFKKIAYTKAELVDKQKNTAMLVILAESAAVVSESPSDLCQTKQEEAFIN
# B10: ddrC (Deinococcus radiodurans, UniProt Q9RYE6); sequence looked up; chain MKNAPLTLNFGSVRLPVSADGLLHAPTAQQQLGLTQSWEAALVEHGLPETYRDFGAGPEAAVSVPDFVALAFALDTPEARRWQKRARELLARAMQGDVRVAAQIAERNPEPDARRWLAARLESTGARRELLATVARHGGEGRVYGQLGSISNRTVLGKDSASVRQERGVKATRDGLTSAELLRLAYIDTVTARAIQESEARGNAAILTLHEQVARSERQSWERAGQVQRVG
# B11: ADAR1 127-end 127-1226 Y1112F (human, UniProt P55265); sequence looked up; chain SSHFQELSIYQDQEQRILKFLEELGEGKATTAHDLSGKLGTPKKEINRVLYSLAKKGKLQKEAGTPPLWKIAVSTQAWNQHSGVVRPDGHSQGAPNSDPSLEPEDRNSTSVSEDLLEPFIAVSAQAWNQHSGVVRPDSHSQGSPNSDPGLEPEDSNSTSALEDPLEFLDMAEIKEKICDYLFNVSDSSALNLAKNIGLTKARDINAVLIDMERQGDVYRQGTTPPIWHLTDKKRERMQIKRNTNSVPETAPAAIPETKRNAEFLTCNIPTSNASNNMVTTEKVENGQEPVIKLENRQEARPEPARLKPPVHYNGPSKAGYVDFENGQWATDDIPDDLNSIRAAPGEFRAIMEMPSFYSHGLPRCSPYKKLTECQLKNPISGLLEYAQFASQTCEFNMIEQSGPPHEPRFKFQVVINGREFPPAEAGSKKVAKQDAAMKAMTILLEEAKAKDSGKSEESSHYSTEKESEKTAESQTPTPSATSFFSGKSPVTTLLECMHKLGNSCEFRLLSKEGPAHEPKFQYCVAVGAQTFPSVSAPSKKVAKQMAAEEAMKALHGEATNSMASDNQPEGMISESLDNLESMMPNKVRKIGELVRYLNTNPVGGLLEYARSHGFAAEFKLVDQSGPPHEPKFVYQAKVGGRWFPAVCAHSKKQGKQEAADAALRVLIGENEKAERMGFTEVTPVTGASLRRTMLLLSRSPEAQPKTLPLTGSTFHDQIAMLSHRCFNTLTNSFQPSLLGRKILAAIIMKKDSEDMGVVVSLGTGNRCVKGDSLSLKGETVNDCHAEIISRRGFIRFLYSELMKYNSQTAKDSIFEPAKGGEKLQIKKTVSFHLYISTAPCGDGALFDKSCSDRAMESTESRHYPVFENPKQGKLRTKVENGEGTIPVESSDIVPTWDGIRLGERLRTMSCSDKILRWNVLGLQGALLTHFLQPIYLKSVTLGYLFSQGHLTRAICCRVTRDGSAFEDGLRHPFIVNHPKVGRVSIFDSKRQSGKTKETSVNWCLADGYDLEILDGTRGTVDGPRNELSRVSKKNIFLLFKKLCSFRYRRDLLRLSYGEAKKAARDYETAKNYFKKGLKDMGYGNWISKPQEEKNFYLCPV
# B12: S100B (Homo sapiens, UniProt P04271); sequence looked up; chain MSELEKAMVALIDVFHQYSGREGDKHKLKKSELKELINNELSHFLEEIKEQEVVDKVMETLDNDGDGECDFQEFMAFVAMVTTACHEFFEHE
# B13: rga7 33-307 (Schizosaccharomyces pombe, UniProt O94466); sequence looked up; chain PKVEAILNSELGLAILNDRIKDYLLTCKELAGFFKKRSILEEESGKNLQKLAKSYLETFQSKHHSPQSFSASVITSMEIHEQLANHSLTLQKTLSAFSDQVIEFHKNAERKRKSIKEYAKKQENAYLEAVMQMDKSKSRFKGAETEYNRALDNKNTGDSQKKVGFFKPKSNAQLTKLEDEARLKAENAESDMHSKIENAQNVQKQLLCIHRPNYIKQFFSLQREIESSLIANYLRYTKLCESNTLLNGLTIRPQKPTPTNCGLQHALDNINANTD
# B14: Ahcy 1-432 (Drosophila melanogaster, UniProt Q27580); chain MSKPSYKVADISLAEWGRKAIIIAENEMPGLMACRKKYGPSKPLKGARITGCLHMTVQTAVLIETLVELGAQVQWSSCNIFSTQDNAAAAIAATGVPVYAWKGETDEEYMWCIEQTLVFPDGQPLNMILDDGGDLTNLVHEKFPQYLKNIKGLSEETTTGVHNLYKMFKEGRLGVPAINVNDSVTKSKFDNLYGCRESLIDGIKRATDVMIAGKVCCVAGYGDVGKGCAQALKGFGGRVIVTEVDPINALQAAMEGYEVTTMEEASKEASIFVTTTGCRDIITSVHLQQMPDDAIVCNIGHFDIEIDVDWLNANAKEKVNVKPQVDRYTMQSGKHIILLAEGRLVNLGCAHGHPSFVMSNSFTNQVLAQIELWTKSDKYAVGVHVLPKILDEEVASLHLEKLGVKLTKLTEKQATYLGVSQTGPFKPDHYRY
# Chain of UniProt Q8T390 (whole entry, looked up): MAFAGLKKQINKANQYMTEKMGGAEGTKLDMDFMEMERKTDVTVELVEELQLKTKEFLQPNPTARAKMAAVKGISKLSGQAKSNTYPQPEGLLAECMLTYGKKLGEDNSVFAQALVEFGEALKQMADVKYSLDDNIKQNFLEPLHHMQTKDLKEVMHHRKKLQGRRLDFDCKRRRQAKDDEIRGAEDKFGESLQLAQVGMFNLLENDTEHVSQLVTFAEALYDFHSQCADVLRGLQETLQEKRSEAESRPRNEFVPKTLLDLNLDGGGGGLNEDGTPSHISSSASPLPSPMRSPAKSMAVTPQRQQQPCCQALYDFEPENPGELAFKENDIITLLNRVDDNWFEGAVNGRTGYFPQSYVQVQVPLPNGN
# Chain of UniProt P34540 (whole entry, looked up): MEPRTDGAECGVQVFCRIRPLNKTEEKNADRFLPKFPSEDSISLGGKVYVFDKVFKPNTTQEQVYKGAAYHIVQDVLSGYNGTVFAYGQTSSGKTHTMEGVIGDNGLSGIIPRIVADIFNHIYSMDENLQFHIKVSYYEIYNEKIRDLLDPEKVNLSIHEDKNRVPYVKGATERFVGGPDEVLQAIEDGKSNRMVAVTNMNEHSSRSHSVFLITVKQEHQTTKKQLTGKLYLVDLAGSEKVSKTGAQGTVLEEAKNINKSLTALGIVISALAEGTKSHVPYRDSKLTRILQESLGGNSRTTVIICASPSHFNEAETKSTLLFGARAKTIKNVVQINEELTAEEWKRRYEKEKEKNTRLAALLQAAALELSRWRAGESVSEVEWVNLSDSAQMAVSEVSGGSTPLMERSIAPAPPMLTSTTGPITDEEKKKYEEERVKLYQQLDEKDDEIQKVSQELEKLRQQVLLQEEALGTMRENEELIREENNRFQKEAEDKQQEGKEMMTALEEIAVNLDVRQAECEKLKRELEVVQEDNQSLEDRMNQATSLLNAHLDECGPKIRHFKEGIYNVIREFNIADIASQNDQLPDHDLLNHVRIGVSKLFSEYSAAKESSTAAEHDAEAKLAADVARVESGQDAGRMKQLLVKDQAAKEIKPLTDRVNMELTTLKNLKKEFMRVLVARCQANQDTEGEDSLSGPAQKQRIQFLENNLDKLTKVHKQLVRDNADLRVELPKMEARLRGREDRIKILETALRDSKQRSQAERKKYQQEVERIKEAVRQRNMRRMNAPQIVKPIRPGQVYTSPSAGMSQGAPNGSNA
# Chain of UniProt Q9T074 (whole entry, looked up): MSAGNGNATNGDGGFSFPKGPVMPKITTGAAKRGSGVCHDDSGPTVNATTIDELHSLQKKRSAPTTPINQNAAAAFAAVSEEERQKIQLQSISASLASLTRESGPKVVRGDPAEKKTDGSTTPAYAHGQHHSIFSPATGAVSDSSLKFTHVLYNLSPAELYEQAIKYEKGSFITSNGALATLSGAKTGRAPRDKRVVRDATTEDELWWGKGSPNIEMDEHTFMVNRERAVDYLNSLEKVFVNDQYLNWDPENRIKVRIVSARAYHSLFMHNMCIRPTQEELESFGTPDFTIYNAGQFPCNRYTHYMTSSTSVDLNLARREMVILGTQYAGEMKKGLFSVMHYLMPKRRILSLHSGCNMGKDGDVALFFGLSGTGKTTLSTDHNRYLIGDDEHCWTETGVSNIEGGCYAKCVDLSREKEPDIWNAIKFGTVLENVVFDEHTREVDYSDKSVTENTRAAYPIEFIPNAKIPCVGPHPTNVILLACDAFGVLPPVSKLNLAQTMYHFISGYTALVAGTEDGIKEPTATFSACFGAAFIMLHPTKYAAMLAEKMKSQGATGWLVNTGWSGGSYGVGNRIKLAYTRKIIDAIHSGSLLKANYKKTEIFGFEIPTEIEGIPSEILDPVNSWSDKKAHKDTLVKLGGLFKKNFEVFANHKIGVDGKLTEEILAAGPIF
Molecule,assay,test system,setting,subunits per oligomer
B1 (Ikbkg 1-355 C54S/K285N),AUC,,,4
B2 (treS),SAXS,,,2
B3 (cfbA 1-143 S11I),SEC,,,2
"PCK1, pT66/pS62 (Arabidopsis thaliana, UniProt Q9T074)",SEC,,,12
B4,fluorescence intensity fluctuation spectrometry,HEK293T,in cells,2
"unc-116 (Caenorhabditis elegans, UniProt P34540)",mass photometry,,,2
B5 (gdh1 2-451),crystallography,,,6
B6 (grpE),cross-linking,,,2
B7 (MIB1 417-1006),SEC-MALS,,,2
B8 (PHYA F389E),SEC,,,2
B9 (comFB 1-98),mass photometry,,without c-di-GMP,4
B10 (ddrC),SEC-MALS,,,1.9 ± 0.16 n-mer
B11 (ADAR1 127-end 127-1226 Y1112F),SEC,,,2
B12 (S100B),AUC,,,2
B13 (rga7 33-307),cross-linking,,,2 and 3 and 4
B14 (Ahcy 1-432),crystal structure,,,4
"EndoA (Drosophila melanogaster, UniProt Q8T390)",SEC-SAXS,,,2

# Excerpt of the above:
Molecule,assay,test system,setting,subunits per oligomer
B14 (Ahcy 1-432),crystal structure,,,4
